Measurements collected from several papers.
A part holds a random share of what one study measured.

Study 1 — technique: competition protein-binding microarray; molecule type: double-stranded DNA, one strand shown; matrix: in vitro; tested at: 2 µM; together with: Pho4 competitor, 0.05 µM; reading: higher = stronger binding; constant ends, left off below: … GTCTTGATTCGCTTGACGCTGCTG
Target: Centromere-binding protein 1, full length, His-tagged (CBF1, Saccharomyces cerevisiae, UniProt P17106, residues 1-351)
Sequence of UniProt P17106 (whole entry, looked up): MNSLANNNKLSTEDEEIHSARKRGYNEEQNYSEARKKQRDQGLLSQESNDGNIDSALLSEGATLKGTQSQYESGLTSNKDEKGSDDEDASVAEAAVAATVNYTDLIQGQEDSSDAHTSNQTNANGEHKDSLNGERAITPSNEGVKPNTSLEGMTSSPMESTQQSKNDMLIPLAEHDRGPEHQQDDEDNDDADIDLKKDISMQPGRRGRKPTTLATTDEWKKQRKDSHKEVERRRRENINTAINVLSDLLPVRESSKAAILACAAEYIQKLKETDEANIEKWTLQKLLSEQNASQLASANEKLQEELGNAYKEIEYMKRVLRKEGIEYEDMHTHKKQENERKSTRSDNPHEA
Setting: whole 60-bp probe, lowest competitor level
Oligonucleotide | fluorescence intensity [a.u.]
AAAGCGGTAATTTGACGCGTGGGTGCAGATATCTAT | 71.5
GTCTTGTCTCATTGTGAAGTGGGTGTCCCCACTTCA | 67.5
AAGTTTTTGTATGAGCATGTGACAGTAAATGCGAAC | 2010
GCTCTTGCAGCAGTTTCCGTGGGTAGGACCAAGGTC | 56.1
CTAACGAAGGTTTGACCTGTGGGTGACAAGCCAAGT | 73.3
GGTTTATTTGGATCGCACGTGGCAATAGTGATGAGA | 1420
AAAACTTACTTCCGTCACATGCAAGACGTAGACCCA | 382
TTGAACATAGAAGACCGCGTGATGGATTTTAGTGCG | 312
AAATCATCTCTTTGTCACGTGACTCGAACCTAGCGG | 25000
AGCAGGATTTATAGGCGCGTGCGGACAGCCTTAGAC | 100
TCTATGGCATGTAGAGTCGTGATGGCTGCTGTACGC | 85
GCAATACATGAGAACTTCGTGCCAGCAAGGCCCAGT | 56.4
AGCATTGGATCTCTAAATTAAATGCGTTAAACAGGG | 80
CTTTCCCGATCTTGGCGTGTGGGTGTAGCACATTTG | 72.5
TCTGTGGGTAAATGTCTCGTGCAAAAAGACAGGCTA | 216
AAATTACTAAGTTTTCACGTGGATTACCCCGTATGA | 723
CTTCTGTAAATTTGTTCAGTGGGTGGACGCGCCCCG | 86.9
ATAACAAGAGACTGTCATGAAATTAATGTCTTACAA | 101
CTAACGAAGGTTTGTCACCTTACTTACAAGCCAAGT | 77.8
CTTTCCCGATCTTGTCACAGCACTTTAGCACATTTG | 78

Study 2 — technique: RNA Bind-n-Seq; molecule type: RNA; matrix: in vitro; tested at: 365 nM; baseline: no-protein control; reading: higher = stronger binding
Target: RNA binding protein fox-1 homolog 2, RRM domain, GST-SBP tag (RBFOX2, Homo sapiens, UniProt O43251-10, residues 100-194)
Setting: natural RNA segment, single round, ends assumed
Constant ends, left off below: GGGAGUUCUACAGUCCGACGAUC … UGGAAUUCUCGGGUGCCAA
Construct (chain): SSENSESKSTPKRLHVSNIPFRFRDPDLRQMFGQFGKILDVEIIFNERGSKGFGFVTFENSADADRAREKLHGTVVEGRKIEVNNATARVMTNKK
Oligonucleotide | RBNS enrichment (R)
CAUCUCAAGCACUCAGAGCUCUGUGAGCUUGCCUACUGUGCGCAGGAUCUCCCCAAGUAUGUCCUACUCUGUGCACCCUGUGCUGGAGCCCUACUUUUCACCCCGCUGCC | 0.632
CUACUGUUUCUUCAUGUAAUGACCAAAAGAGUCCCACCAGCUCCAGGCAGAGCUUGUGGAGAUUCAUGAAAGAGUCAUAGCCAGUUUGGCAUGCAGAGGUCUUCAGUCUU | 0.236
UGCUCCCUCUUGUCUUGAAACAGUUUGAGUAAGAAAGUCUUGCUGUAAAUGCUGCCCUCUGCCGCCUUUGUUUUGAGAUGCAGUUUAAACUCCCUCUGGCUGCUGCUGCU | 1.06
AGAAUGAGUAAGUUAACAGCCAGAGACAGACACUGUGCAGGCAUUGCAAAUAGAUGGAAUUACAGCAAAAUGUGCUCAAUGUAUUUGCCUGCUUACAACACUGGGAGAUG | 0.422
AGUCUAGGGAAUUUAUUUGGUAUUUGUAAGGCAAGAGGUGAUUUCUCUCUAAUAUAUCUGAGUUAUUGCUCAUUUAAAACUGUUAAGUCCAGUAUAAUUUUCCCUGAUAU | 0.407
UGUAGCUAUGGAAGUUGCAUAAUUAUUAUUAUUAUUAUUAUAACAAGUGUGUCUUACGUGCCACCACGGCGUUGUACCUGUAGGACUCUCAUUCGGGAUGAUUGGAAUAG | 1.29
CGGGCCUCAGUUUCCUCAAUCAUAGAAGAAGACCAAUAGACAAGAUCAGCUGUUCUUAGAUGCUGGUGGGCAUUUGAACAUGCUCCUCCAUGAUUCUGAAGCAUGCACAC | 4.17
AAAAAGAGACUGCCUACAAAUUGUUCCUCUAGAUCAUCGGGGCAGAGGUGCUGUCUAUAAAGCCCCCCCGGGGGCUAACCUUUGCUCAGAUUCUUAAAAAGCAGUGGUUA | 0.32
AGCUGUUGCCAGUGUCCUUCUGAGCCUGGAUUCUCCGGGGAUUUCCGUCGUGGUGGAUGGACUUCACAUCAGCAGCAGUUCUGGUACAGAAUUGUAAUGUGUUUUCAUUU | 0.362
UACGGCAGCUGGUGGAAUCUAUUGGGCAAAAAGUCCUGCAACCCUCUUACCUCCAGGCUUUGGUGCUUAACACAAAAUGACUGCAGAUGCCUCUCUGGAAGCCCUAGGCU | 0.616
GCACUUUUAAAAUAAGAAGCAUGAACAACAUUUAAAUUCCCAUUUAUCAAAUCCUUCUCUCCCAAGCCAUUUAAAAACGUUUUUUAAGUGAAAAGUUUGUAUUCUGCCUC | 2.77
AAUUCCUAAUUUCUCUAGAUAUUUAAGAAUGGCACACACUUUAAAUAUUUAUGGGUGAAUUGAUGCCACAAAAGUAAUAUGAUUGCCCACCUCAACCUGGCAUUCUGUGU | 0.899

Study 3 — technique: EMSA with sequencing; molecule type: double-stranded DNA, one strand shown; matrix: in vitro; tested at: 10 and 20 nM; baseline: negative control set to 0; reading: higher = stronger binding
Target: Hepatocyte nuclear factor 3-alpha (Foxa1, Mus musculus, UniProt P35582, residues 1-468, full length assumed)
Sequence of UniProt P35582 (whole entry, looked up): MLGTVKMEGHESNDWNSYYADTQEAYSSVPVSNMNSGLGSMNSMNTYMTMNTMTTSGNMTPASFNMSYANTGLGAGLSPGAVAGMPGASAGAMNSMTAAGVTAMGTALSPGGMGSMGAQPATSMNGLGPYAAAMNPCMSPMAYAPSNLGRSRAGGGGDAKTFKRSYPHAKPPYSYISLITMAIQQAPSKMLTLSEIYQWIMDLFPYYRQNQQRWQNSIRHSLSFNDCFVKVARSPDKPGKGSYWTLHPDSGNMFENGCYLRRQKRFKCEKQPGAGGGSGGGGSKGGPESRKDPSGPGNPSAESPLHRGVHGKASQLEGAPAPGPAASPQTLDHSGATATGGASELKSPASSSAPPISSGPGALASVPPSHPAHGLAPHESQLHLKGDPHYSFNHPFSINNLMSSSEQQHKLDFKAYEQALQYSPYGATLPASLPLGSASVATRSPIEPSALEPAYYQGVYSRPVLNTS
Setting: whole designed probe, mean of two concentrations, ends assumed
Constant ends, left off below: GTGAGCGGTGCCCATTGATGGGGAAC … TTTCACTGGGATCGTGGGGAC
Oligonucleotide | normalised bound fraction [ratio]
TACTTCTTTCCTTTAACATATGGCATTTGCTTAACCTCTTGGAGAGTTGTGGTTTTCTGACCCTGGAGTTCTGATGGGAAAGATAATGAGAAGTGTTTACTTAGCATCTAGGCCAGCAAGCTAAGAAAAACATTGTGCCATGCTAGTATTGACAAGGTGACAGAGAGCCCACACTTGCCTCACATGTTGGCCA | 0.409
CTTCAAAGTAGCTCCCATATGGACTGAATATAGGATACGAGCCTCTGCCTAGCCTTCAGTCCTTTTTGTTTGGTTTAGGTGTTGGTTGTCTTTGTAATCTCTGGAAGCTGCTGAGTCATCTCCCTCGGCTTTTTCCATCACACTTTACCCCACATACATTCATACACACTTGGCTCAAGCTTTTCGGTTCTTT | 0.184
CAATGGGGTAGGTCAGCCCCAGTGAACTCTCAAATGACCACTGAAGGAGGAAGTGAGTGCAGAGTGTGATACCACTCACATCCCAGCCCAGACTGTTTGCTCAGCTGGGAGGAGTGTTGCAATTCTTCTTCCTGCAGAGATAACACCCCTTCTCATGGCTTCAGGCATCACCTATCTCCTCTAGGCTGCGCTC | 0.193
TCTGCGTCTAGCTCTGGAGCTCAGACTGGAACTGCTCAGCAGGAAACAGGTCTTGCTGCTAGTAAATTACCATGACTGTGTTTACATGGTGAGTCAACAGGCATAGGTCAGCTCTCCTTCTCTCCAAGCAGTCCCTTGAGCTGATGATTTATCTGGGTAAATCACATTCCAAATCAATTTTATTTTTGGCTGT | 0.157
CACGTGCACAAACCCATATGCCTTACAGAGTCAAGGGCTGTGATGAGGGTCCCCACCCTTGCACACTTCTCTGTCCTCTGTCTGGGCTCAGAGTAAACAGGGGGTCACCTGGAATCCAGGTCTAAGCTGGGCTTGGAGGTGTCCTAATGAAGCAGGATGCTGACATGCACTTCCCCAGGTCAGCTGGGGCTGT | 0.1
ATCTTCCCCCTCTTCCTTGCCCCACCAGCTCACCTTCCCGGGTTATTTGCAGATAGGAAAATAAATAAAGCCGGCATTCGTTAACGCAGTTCTGGCGCAAACTGCTGTTTGCTCTGCATGAATCATGGTCCTTACGCGACGCCAGGCTCCGGGAGAGCAAAGCACCGTGTCAGGCGCATGATCCGGGGTGGCC | 0.352
TTCTTGGAAACGTAGGCACTAACTATATCATGGCCACCTAGGGCTTTCCCTTTCCTGTTTCATATTAGTACATCACAAAGGACTGAGTTCTCGATGTTTACTCAGTAAGAAGATAGCAGAAGAGTGGCTGAGAAGTAATAATCCTCTGTTTGTGTGATGACTGTATCCTGCTTGTGGCAACAGTGTGATGTGG | 0.381
TACCAAAAATATCTAGAATGGAATGACATCTCCTCTAAGGCAGGGGATAATTAACTTGTCCCCACAAAGTATAAATAATCTCTTTCTTCACAAAGTAAACATGTTTTTCTGACACTATCTGACATTTCCATCCAGTGTGCTTTTGAAACTGTATGCTCTTGTTTTTGTTTTTTATTTTTGTTTTTTTTGTTCA | 0.417

Study 4 — Molecule: ISRLFPPRTPGWHQLQ; technique: competitive growth deep sequencing; molecule type: peptide; tested at: concentration not given; setting: peptide tiling library; reading: direction not given
target or system | test | system | growth enrichment score
yeast with cyclin D2-Cln2 chimera | cell growth, binder |  | -0.874
yeast with cyclin D1-Cln2 chimera | cell growth, binder |  | -1.96
Saccharomyces cerevisiae | binding | cyclin E1-Cln2 fusion strain | 0.253
Saccharomyces cerevisiae | binding | cyclin D2-Cln2 fusion strain | -3.07
yeast with cyclin E2-Cln2 chimera | cell growth, binder |  | 0.985
Saccharomyces cerevisiae | binding | cyclin D3-Cln2 fusion strain | -0.619
yeast with cyclin F-Cln2 chimera | cell growth, binder |  | 0.809
yeast with cyclin B3-Cln2 chimera | cell growth, binder |  | -0.2

Excerpt of the above (study 1):
Oligonucleotide | fluorescence intensity [a.u.]
TCTGTGGGTAAATGTCTCGTGCAAAAAGACAGGCTA | 216
AAATTACTAAGTTTTCACGTGGATTACCCCGTATGA | 723
CTTCTGTAAATTTGTTCAGTGGGTGGACGCGCCCCG | 86.9
ATAACAAGAGACTGTCATGAAATTAATGTCTTACAA | 101
